Measurements pooled from the literature.
Each numbered part is a random draw from the data of one study; scales do not carry over between parts. Positions count from the first letter of the parent shown.

Set 1
Target: Muscarinic acetylcholine receptor M3 (CHRM3, Homo sapiens, UniProt P20309)
Chain of UniProt P20309 (whole entry, looked up): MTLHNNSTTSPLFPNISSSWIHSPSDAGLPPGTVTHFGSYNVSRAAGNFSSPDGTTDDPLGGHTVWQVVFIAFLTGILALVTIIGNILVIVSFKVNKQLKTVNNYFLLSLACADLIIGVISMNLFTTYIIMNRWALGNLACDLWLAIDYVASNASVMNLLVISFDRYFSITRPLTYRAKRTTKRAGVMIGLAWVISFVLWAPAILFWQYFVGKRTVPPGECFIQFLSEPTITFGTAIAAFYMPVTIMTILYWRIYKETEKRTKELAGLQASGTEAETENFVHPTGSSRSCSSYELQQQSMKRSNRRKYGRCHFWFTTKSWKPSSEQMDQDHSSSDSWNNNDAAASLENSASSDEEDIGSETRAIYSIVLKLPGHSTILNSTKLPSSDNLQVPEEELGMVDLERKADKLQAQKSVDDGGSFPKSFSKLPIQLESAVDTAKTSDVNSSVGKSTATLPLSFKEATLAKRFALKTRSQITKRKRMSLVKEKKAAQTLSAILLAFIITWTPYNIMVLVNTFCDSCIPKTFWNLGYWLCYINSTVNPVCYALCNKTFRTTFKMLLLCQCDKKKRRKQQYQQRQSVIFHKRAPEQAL
Effect on: ligand displacement
Concentration: 10 µM
Endpoint: inhibition
C[C@H](c1ccnc(Nc2nc3ccc(-c4cc(N(C)C)ncn4)cc3[nH]2)c1)N1CCN(C(=O)CC(F)(F)F)CC1: -8.4%
CN(C)c1ncnc(-c2ccc3nc(Nc4cc(CN5CCN(C(=O)CC(F)(F)F)CC5)ccn4)[nH]c3c2)c1Cl: 23.9%
CS(=O)(=O)N1CCCC(NC(=O)[C@H](CCC2CCCCC2)NC(=O)c2ccc(CNC(=O)c3cnc4ccccn34)cc2)C1 (stereo partly drawn): 20.6%
CNC(=N)NCCC[C@H](NC(=O)[C@H](CC(C)C)NC(=O)NNC(=O)[C@H](Cc1ccccc1)NC(=O)[C@H](CO)NC(=O)[C@H](CC(N)=O)NC(=O)[C@@H](Cc1ccncc1)NC(=O)[C@H](N)Cc1ccc(O)cc1)C(=O)N[C@@H](Cc1ccccc1)C(N)=O: 10.6%

Set 2
Target: MAFG, bZIP domain (human)
Technique: DHFR protein complementation
Medium: yeast
Notes: single substitutions, most at no-binding floor
Baseline: wild-type JUN-FOS pair
Direction: higher = stronger binding
Endpoint: binding fitness
Starting sequence: JUN, bZIP domain (human); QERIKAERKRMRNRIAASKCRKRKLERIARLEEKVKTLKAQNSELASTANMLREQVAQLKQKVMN; partner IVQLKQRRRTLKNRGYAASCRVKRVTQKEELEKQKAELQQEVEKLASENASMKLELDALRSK
S47P: -1.47 natural log
S47Y: -1.57 natural log
L38W: -1.53 natural log
A29R: -1.46 natural log
V35R: -1.48 natural log
R53M: -1.52 natural log
E33W: -1.49 natural log
T37N: -1.4 natural log

Set 3
Target: Prothrombin, mature alpha-thrombin (F2, Homo sapiens, UniProt P00734)
Technique: aptamer microarray, sandwich
Molecule type: DNA with 2'F-ANA
Medium: in vitro
Concentration: 200 nM
Notes: whole 15-mer aptamer, many near background
Added: Cy3 exosite-II aptamer, 400 nM
Direction: higher = stronger binding
Endpoint: mean fluorescence intensity
Oligonucleotide: GGTTGGTGTGGTTGG
2'F-ANA at 1 3 4 8 9 11 12 14 15: 78.3 a.u.
2'F-ANA at 5 7 8 9 11 12 14: 45.8 a.u.
2'F-ANA at 4 5 6 7 9 12 13 14: 48.3 a.u.
2'F-ANA at 6 8 9 12 13: 655 a.u.
2'F-ANA at 1 2 8 11 14: 60.3 a.u.
2'F-ANA at 1 2 3 4 5 8 9 10 11 12 13 14 15: 55.5 a.u.
2'F-ANA at 3 4 6: 629 a.u.
2'F-ANA at 2 4 7 8 15: 391 a.u.

Set 4
Target: CCNE2, cyclin fold, Cln2 fusion (human)
Technique: yeast growth competition, sequencing
Medium: yeast
Notes: strong parent motif
Baseline: not given
Direction: higher = stronger binding
Endpoint: normalised enrichment score
Starting sequence: viral docking peptide; KKAKRRLFTISDS
R5K: 0.804
K4A: 1.04
R5K F8L: 0.689
S13A: 2.47

Set 5
Target: inorganic phosphate, free oxyanion
Technique: microfluidic competitive inhibition
Medium: in vitro, cell-free expressed
Concentration: not given
Notes: derived from inhibition constants, unchanged parent 615000 nM
Direction: lower = stronger binding
Endpoint: phosphate dissociation constant
Starting sequence: PafA, mature enzyme, eGFP fusion (Elizabethkingia meningoseptica, UniProt Q9KJX5); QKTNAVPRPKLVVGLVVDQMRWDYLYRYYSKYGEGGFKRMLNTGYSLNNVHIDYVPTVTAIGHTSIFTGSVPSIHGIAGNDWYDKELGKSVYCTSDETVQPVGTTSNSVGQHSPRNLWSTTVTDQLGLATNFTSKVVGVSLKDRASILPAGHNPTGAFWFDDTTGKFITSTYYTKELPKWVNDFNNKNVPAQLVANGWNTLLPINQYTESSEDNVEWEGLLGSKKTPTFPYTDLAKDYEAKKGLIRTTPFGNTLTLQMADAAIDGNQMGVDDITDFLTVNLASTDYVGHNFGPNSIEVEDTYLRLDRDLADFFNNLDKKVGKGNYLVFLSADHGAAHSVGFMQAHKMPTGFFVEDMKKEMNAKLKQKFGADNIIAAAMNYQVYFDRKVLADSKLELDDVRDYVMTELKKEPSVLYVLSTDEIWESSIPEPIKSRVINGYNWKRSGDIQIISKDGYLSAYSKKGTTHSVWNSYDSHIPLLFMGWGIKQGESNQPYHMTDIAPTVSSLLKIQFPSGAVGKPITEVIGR
A259G: 472 µM
K38V: 610 µM
Q381G: 561 µM
K461G: 602 µM
G79V: 100 µM
S283G: 750 µM
V382A: 632 µM
V416G: 474 µM
D453G: 568 µM
T3G: 633 µM
E359G: 557 µM
S140G: 381 µM
I66G: 373 µM
G369V: 646 µM
A240G: 575 µM
Q448G: 661 µM
W441V: 442 µM
E421G: 526 µM

Repeated from above (set 3):
2'F-ANA at 4 5 6 7 9 12 13 14: 48.3 a.u.
2'F-ANA at 5 7 8 9 11 12 14: 45.8 a.u.
2'F-ANA at 2 4 7 8 15: 391 a.u.
2'F-ANA at 3 4 6: 629 a.u.
2'F-ANA at 6 8 9 12 13: 655 a.u.
2'F-ANA at 1 2 8 11 14: 60.3 a.u.
